Measurements from different studies.
Values joined by “and” are separate records of one study, mostly repeats; a detail may differ.
Target: Serine/threonine-protein kinase Nek6 (NEK6, Homo sapiens, UniProt Q9HC98)
UniProt Q9HC98, sequence (whole entry, unmodified, looked up): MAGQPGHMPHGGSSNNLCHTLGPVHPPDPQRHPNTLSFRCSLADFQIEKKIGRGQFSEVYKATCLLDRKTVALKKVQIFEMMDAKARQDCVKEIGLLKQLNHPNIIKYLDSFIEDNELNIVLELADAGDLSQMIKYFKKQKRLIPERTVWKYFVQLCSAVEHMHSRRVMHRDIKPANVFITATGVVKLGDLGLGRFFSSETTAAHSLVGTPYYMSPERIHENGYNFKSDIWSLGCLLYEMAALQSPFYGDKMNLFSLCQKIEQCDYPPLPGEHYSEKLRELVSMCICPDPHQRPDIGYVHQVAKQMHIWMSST

`COc1ccc(C(=O)/C=C/c2ccccc2-c2c[nH]c3ccc(C#N)cc23)c(O)c1` gave an inhibition of 4% (enzyme activity, inhibitor; 20 µM).
For `COc1cc(Nc2nc(C)cc(-c3cnn4nc(OC)ccc34)n2)cc(C(F)(F)F)c1`, the remaining activity was 89% (inhibitor; 1 µM; relative to: control).
`Cc1ccc(C)c(-c2ccc3nc(NC(=O)C4CCCCC4)nn3c2)c1` gave a remaining activity of 81% (enzyme activity, Dundee kinase panel; 10 µM).
`C=CC(=O)Nc1cccc(-c2cnc3[nH]cc(C(=O)NC(C)(C)C)c3n2)c1` has an inhibition of 3% and 2% (kinase activity; 0.1 µM).
For `COc1ccc(NC(=O)Nc2ccc3c(c2)C(=O)N(C(C)CO)CC(C)C(CN(C)Cc2ccc4c(c2)OCO4)O3)cc1` (stereo not shown), the remaining activity was 94% (kinase activity, KinaseProfiler; 0.03 µM, species human; relative to: control).
`Cc1cccc(-c2ccc3nc(NC(=O)C4CCCCC4)nn3c2)c1` has a remaining activity of 88% (enzyme activity, Dundee kinase panel; 10 µM).
For `O=C=[N][Ru-4]123([n]4c5ccc(O)cc5c5c6c(c7cc(F)c[n+]1c7c54)C(=O)NC6=O)[S+]1CC[S+]2CC[S+]3CC1` (stereo not shown), the remaining activity was 94% (enzyme activity; 100 nM, human enzyme, together with: 10 µM ATP; relative to: untreated).
`COCC12C(=O)NC3C4(C(OC)CC1O)C1CC5(O)C(OC)C(O)C(OC(C)=O)(C1C5OC(=O)c1ccccc1)C3(O)C(OC)C24` (stereo not shown) has a remaining activity of 114% and 106% (kinase activity, inhibitor, ProQinase kinase profiling; 25 µM; relative to: control).
`CN1CC[C@@H](COc2cnc(C#N)cc2-c2ccn3nc(NC(=O)C4CC4)cc3c2)C1` gave an inhibition of -6% (enzyme activity, inhibitor; 1 µM).
`C=CC(=O)N1CCCC(n2c(=O)c3ncccc3n(Cc3ccc(Oc4ccccc4)cc3)c2=O)C1` (stereo not shown) has a remaining binding of 100% (cell-free assay, competition with immobilised ligand; 1 µM).
With `NC(=O)[C@@H](O)C[C@H]1CCc2sc3ncnc(O[C@H]4CC[C@H](N5CCOCC5)CC4)c3c21` the inhibition was 1% (enzyme activity, inhibitor; 10 µM).
The remaining activity of `Nc1ncc(-c2cc(-c3cnn(CC(F)(F)F)c3)ncc2F)nc1C(=O)NC1CNCC(F)C1` (stereo not shown) is reported as 102% (enzyme activity; 1 µM; relative to: DMSO control).
With `COc1c(OCCCN2CCOCC2)ccc2c1N=C(NC(=O)c1cnc(N)nc1)N1CCN=C21` the remaining activity was 114% (kinase activity, inhibitor; 1 µM; relative to: untreated control).
The remaining binding of `CC(C)=CC1OC(C)(C)C2C=C3C(=O)C(Cl)=CC(O)C3C3C(O)C4OC4C(=O)C132` (stereo not shown) is reported as 87% (cell-free assay, competition with immobilised ligand; 10 µM).
For `Nc1ncc2c(n1)-c1c([nH]c3ccc(C4=CCOCC4)cc13)CCC2`, the remaining binding was 88% (binding, competition with immobilised ligand; 1 µM).
For `Cc1cccc(O[C@H]2CCC[C@@H](C(C)CNCc3ccncc3)C2)c1` (relative stereo), the inhibition was -4% (enzyme activity, inhibitor; 10 µM).
With `Nc1nc(Nc2ccccc2)sc1C(=O)c1ccccc1` the remaining activity was 60% (enzyme activity, inhibitor; 10 µM).
Under “activity vs control”, `CNC(=O)C[C@H](Cc1ccc(C#N)cc1)NC(=O)c1cc(-c2ccc(CN[C@H](C)c3ccc(C)cc3)o2)ccc1Cl` is recorded as 110% (enzyme activity, inhibitor; 1 µM).
With `CN1C[C@@H](c2c[nH]c3cc(Br)ccc23)NC[C@@H]1c1c[nH]c2cc(Br)ccc12` the remaining activity was 108% (enzyme activity, inhibitor; 10 µM).
